Assay results of several laboratories.
Every numbered part comes from another study and shows a few of its results, in no order. “And” joins repeats or separate records; there may be more than shown.
UniProt P15056, sequence (whole entry, looked up): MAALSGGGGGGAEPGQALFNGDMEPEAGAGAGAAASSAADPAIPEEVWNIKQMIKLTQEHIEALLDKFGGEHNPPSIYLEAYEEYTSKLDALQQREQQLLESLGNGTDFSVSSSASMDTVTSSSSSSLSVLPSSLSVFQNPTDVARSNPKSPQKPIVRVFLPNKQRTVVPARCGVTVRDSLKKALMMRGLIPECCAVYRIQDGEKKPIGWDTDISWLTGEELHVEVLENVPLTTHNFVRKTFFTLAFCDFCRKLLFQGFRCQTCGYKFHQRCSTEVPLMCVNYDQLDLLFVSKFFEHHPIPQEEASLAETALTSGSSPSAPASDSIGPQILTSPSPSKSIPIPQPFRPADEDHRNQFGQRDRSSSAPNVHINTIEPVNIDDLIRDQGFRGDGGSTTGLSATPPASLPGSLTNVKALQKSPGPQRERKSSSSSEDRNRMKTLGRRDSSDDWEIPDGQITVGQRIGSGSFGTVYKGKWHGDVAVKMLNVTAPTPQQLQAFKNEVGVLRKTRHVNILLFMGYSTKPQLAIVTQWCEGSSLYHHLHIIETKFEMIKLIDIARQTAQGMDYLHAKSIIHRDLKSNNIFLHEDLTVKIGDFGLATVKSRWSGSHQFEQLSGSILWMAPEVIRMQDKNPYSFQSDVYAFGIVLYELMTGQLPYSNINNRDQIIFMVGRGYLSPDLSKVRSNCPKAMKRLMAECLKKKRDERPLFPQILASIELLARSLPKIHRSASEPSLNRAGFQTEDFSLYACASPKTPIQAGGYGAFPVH
UniProt P62344, sequence (whole entry, looked up): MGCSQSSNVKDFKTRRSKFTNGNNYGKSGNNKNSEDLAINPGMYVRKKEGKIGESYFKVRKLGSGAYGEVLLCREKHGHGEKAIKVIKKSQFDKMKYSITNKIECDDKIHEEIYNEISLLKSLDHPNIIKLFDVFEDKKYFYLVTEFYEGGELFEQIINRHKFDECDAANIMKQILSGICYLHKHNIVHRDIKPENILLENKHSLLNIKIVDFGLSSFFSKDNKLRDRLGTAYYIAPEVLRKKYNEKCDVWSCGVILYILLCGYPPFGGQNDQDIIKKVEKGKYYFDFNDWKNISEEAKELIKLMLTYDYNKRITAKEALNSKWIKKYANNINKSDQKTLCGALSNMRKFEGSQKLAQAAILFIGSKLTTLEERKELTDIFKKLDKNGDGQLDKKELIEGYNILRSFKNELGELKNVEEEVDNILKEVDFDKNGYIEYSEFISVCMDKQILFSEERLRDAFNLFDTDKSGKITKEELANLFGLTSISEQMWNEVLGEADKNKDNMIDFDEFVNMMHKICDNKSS

Series 1
Target: Calcium/calmodulin-dependent protein kinase type II subunit alpha (CAMK2A, Homo sapiens, UniProt Q9UQM7)
UniProt Q9UQM7, sequence (whole entry, looked up): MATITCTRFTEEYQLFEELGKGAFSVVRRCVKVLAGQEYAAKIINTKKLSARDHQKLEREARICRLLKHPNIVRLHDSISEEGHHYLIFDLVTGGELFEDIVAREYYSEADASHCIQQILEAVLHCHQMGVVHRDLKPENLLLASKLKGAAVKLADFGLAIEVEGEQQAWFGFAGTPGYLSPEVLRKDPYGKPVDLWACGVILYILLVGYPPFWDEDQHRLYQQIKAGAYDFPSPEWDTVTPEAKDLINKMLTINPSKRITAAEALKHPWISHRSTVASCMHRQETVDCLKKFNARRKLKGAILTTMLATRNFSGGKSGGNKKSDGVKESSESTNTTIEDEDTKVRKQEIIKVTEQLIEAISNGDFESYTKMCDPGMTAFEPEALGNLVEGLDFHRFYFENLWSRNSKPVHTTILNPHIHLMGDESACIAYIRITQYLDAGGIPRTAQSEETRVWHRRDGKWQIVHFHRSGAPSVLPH
Read-out: enzyme activity
Action: inhibitor
Tested at: 10 µM
Structure (SMILES) | inhibition [%]
CC(C)(O)[C@@H]1[C@H]2OC(=O)[C@@H]1[C@]1(O)C[C@H]3O[C@]34C(=O)O[C@H]2[C@]14C | -1
CC(=O)Oc1ccc(/C=C/c2cc(OC(C)=O)cc(OC(C)=O)c2)cc1 | 30
CCOC(=O)[C@H](Cc1ccc(F)cc1)NC(=O)[C@@H](N)Cc1ccc(N(CCCl)CCCl)cc1 | -7
CC(C)[N+](C)(CCC(C(N)=O)(c1ccccc1)c1ccccc1)C(C)C | -10
COC[C@@]12CC[C@H](OC)[C@@]34[C@@H]5C[C@@]6(O)[C@H](OC(=O)c7ccccc7)[C@@H]5[C@@](OC(C)=O)([C@@H]([C@H](OC)[C@H]13)[C@H]4N(C)C2)[C@@H](O)[C@@H]6OC | -70
C[C@@H](NC(=O)[C@@H](N)Cc1ccc(O)cc1)C(=O)N[C@@H](Cc1ccccc1)C(=O)NCC(=O)N[C@@H](Cc1ccc(O)cc1)C(=O)N1CCC[C@H]1C(=O)N[C@@H](CO)C(N)=O | 3
C[C@]12CC[C@H](O)C[C@H]1CC[C@@H]1[C@@H]2C(=O)[C@H](O)[C@]2(C)[C@@H](c3ccc(=O)oc3)CC[C@]12O | 21
NCC(O)c1ccc(O)cc1 (stereo not shown) | -38

Mixed results
HTR2C: 5-hydroxytryptamine receptor 2C (HTR2C, Homo sapiens, UniProt P28335)
UniProt P28335, sequence (whole entry, looked up): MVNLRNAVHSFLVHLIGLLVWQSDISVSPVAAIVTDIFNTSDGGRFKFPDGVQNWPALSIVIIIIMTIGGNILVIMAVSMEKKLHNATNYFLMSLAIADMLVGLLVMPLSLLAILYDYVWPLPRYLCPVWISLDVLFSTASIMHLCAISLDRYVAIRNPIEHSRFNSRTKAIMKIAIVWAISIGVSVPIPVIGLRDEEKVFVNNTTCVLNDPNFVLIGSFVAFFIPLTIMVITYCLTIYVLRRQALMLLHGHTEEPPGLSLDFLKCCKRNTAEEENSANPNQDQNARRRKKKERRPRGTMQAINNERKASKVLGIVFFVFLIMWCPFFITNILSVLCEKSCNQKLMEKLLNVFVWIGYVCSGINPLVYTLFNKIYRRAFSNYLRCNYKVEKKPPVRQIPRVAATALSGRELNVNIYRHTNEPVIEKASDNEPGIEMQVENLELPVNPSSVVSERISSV
Eukaryotic initiation factor 4A-III: Eukaryotic initiation factor 4A-III (Homo sapiens, UniProt P38919)
UniProt P38919, sequence (whole entry, looked up): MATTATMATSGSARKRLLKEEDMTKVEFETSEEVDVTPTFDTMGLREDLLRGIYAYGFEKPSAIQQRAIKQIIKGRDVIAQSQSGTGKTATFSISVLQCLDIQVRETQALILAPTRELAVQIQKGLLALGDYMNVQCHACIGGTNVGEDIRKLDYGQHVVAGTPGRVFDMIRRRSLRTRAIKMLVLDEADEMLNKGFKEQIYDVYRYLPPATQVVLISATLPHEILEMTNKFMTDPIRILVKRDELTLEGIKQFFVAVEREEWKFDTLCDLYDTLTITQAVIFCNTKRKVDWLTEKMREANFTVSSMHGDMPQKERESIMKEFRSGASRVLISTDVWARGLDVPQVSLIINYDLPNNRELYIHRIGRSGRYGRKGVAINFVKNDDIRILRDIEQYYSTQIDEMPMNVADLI
Compound | tested on | test | system | setting | how to read | endpoint | value
CC1=C(C#N)[C@@H](c2ccc3[nH]nc(C)c3c2)C(C#N)=C(c2ccc(Cl)cc2)N1 | HTR2C | binding, radioligand binding | – | 10 µM | – | inhibition | 71.8%
CONC(=O)[C@@H]1[C@@H](O)[C@@]2(O)c3c(OC)cc(OC)cc3O[C@@]2(c2ccc(Br)cc2)[C@H]1c1ccccc1 | Eukaryotic initiation factor 4A-III | RNA clamping, fluorescence polarization | – | concentration not given, added: FAM-labelled poly r(AG)8 RNA | – | fluorescence polarization change | 9.1 mP
CN(C)C(=O)Cn1cc(-c2nc([C@@](C)(c3ccc(-c4cnc(N)nc4)cc3)C3CC3)no2)cn1 | HTR2C | binding, radioligand binding | – | 10 µM | – | inhibition | 0.496%
COc1ccc(-c2nc3c(c(=O)[nH]2)[C@H](c2ccccc2)[C@@]2(c4ccc(OC)cc4)Oc4cc(OC)cc(OC)c4[C@@]32O)cc1 | Eukaryotic initiation factor 4A-III | RNA clamping, fluorescence polarization | – | concentration not given, added: FAM-labelled poly r(AG)8 RNA | – | fluorescence polarization change | 19 mP
CNC(=O)c1ccc(Nc2ncc(C(F)(F)F)c(NCc3nccnc3N(C)S(C)(=O)=O)n2)cc1 | CDPK1 (Plasmodium falciparum, UniProt P62344) | cell-free assay, competition with immobilised ligand | – | 0.1 µM | – | remaining binding | 85%
CN[C@@H]1C[C@H]2O[C@@](C)([C@@H]1OC)n1c3ccccc3c3c4c(c5c6ccccc6n2c5c31)C(=O)NC4 | BRAF (Homo sapiens, UniProt P15056) | enzyme activity, inhibitor | – | 0.5 µM | baseline: control | remaining activity | 106% and 113%
Cc1nc(C2CCN(C(=O)c3ccc(OC(F)(F)F)cc3N)CC2)c2ncc(N3CCN(C)CC3)cc2n1 | HTR2C | binding, radioligand binding | – | 10 µM | – | inhibition | -14.6%
O=C1CCC(N2Cc3c(ccc4c3OCC43CCN(Cc4ccccc4)CC3)C2=O)C(=O)N1 (stereo not shown) | – | – | male CD-1 mouse, plasma | intravenous, 1 mg/kg | – | Vd | 4.24 L/kg

Some of these lines once more (series 1):
Structure (SMILES) | inhibition [%]
C[C@@H](NC(=O)[C@@H](N)Cc1ccc(O)cc1)C(=O)N[C@@H](Cc1ccccc1)C(=O)NCC(=O)N[C@@H](Cc1ccc(O)cc1)C(=O)N1CCC[C@H]1C(=O)N[C@@H](CO)C(N)=O | 3
